Measurements pooled from the literature.
Lines come from different studies, so protocols differ. Values joined by “and” are separate records of one study, mostly repeats; a detail may differ. Numbers after ± are the reported error.

Compound | tested on | assay | test system | setting | how to read | endpoint | value
COC1OC(C)C(O)C(OC2OC(C)C(O)C(OC3OC(C)C(O)C(OC4OC(C)C(O)C(OC5OC(C)C(O)C(OC6OC(C)C(O)C(OC7OC(C)C(O)C(OC8OC(C)C(O)C(OC9OC(C)C(O)C(OC%10OC(C)C(O)C(OC%11OC(C)C(O)C(OC%12OC(C)C(O)C(OS(=O)(=O)O)C%12OS(=O)(=O)O)C%11OS(=O)(=O)O)C%10OS(=O)(=O)O)C9OS(=O)(=O)O)C8OS(=O)(=O)O)C7OS(=O)(=O)O)C6OS(=O)(=O)O)C5OS(=O)(=O)O)C4OS(=O)(=O)O)C3OS(=O)(=O)O)C2OS(=O)(=O)O)C1OS(=O)(=O)O (centres unmarked) | – | – | human plasma | 128 µg/mL | – | activated partial thromboplastin time | 42.6 ± 0.3 s
O=C(N/N=C/c1cc[n+](CC2CC2)c2ccccc12)c1cc(C(=O)N/N=C/c2cc[n+](CC3CC3)c3ccccc23)ncn1 | 22CTA telomeric G4-DNA antiparallel | FRET melting | – | 1 µM, K10 buffer, DNA 0.2 µM, together with: ds26 10 µM | – | ΔTm | 10 ± 0.7 °C
COC1CN([C@H]2CC[C@H]([C@@]3(C)Oc4c(Cl)cc(C(=O)NCc5c(SC)cc(C)[nH]c5=O)c(C)c4O3)CC2)C1 | – | RNA-seq, measured: NKD2 mouse homolog | mouse, HT-1376 xenograft, whole blood | dose not given | reference: vehicle | log2 fold change | 1.88
C=CC(=O)N1[C@H](c2ccc3c(c2)OCO3)c2[nH]c3ccccc3c2C[C@@H]1C(=O)N1CCN(C)CC1 | human cyclin E1 N112C-3xFLAG:CDK2 | co-IP with TMT proteomics, measured: HNRNPA1 | – | concentration not given, P09651 | reference: wild type DMSO | relative co-enrichment | 202%
CNS(=O)(=O)Nc1nccc(Cc2c(C)c3ccc(Oc4ncccc4F)cc3oc2=O)c1F | BCP-1 | cell viability | – | 7 days | – | IC50 | > 1 µM
Cc1ncsc1-c1ccc(C(C)NC(=O)C2CC(O)CN2C(=O)C(NC(=O)CCCCCCCCCCN2CCCC(Nc3ncc(Cl)c(Nc4ccccc4S(=O)(=O)C(C)C)n3)C2)C(C)(C)C)cc1 (centres unmarked) | 22Rv1 | RNA-seq, measured: TSTD2 mRNA | – | concentration not given | reference: DMSO | log2 fold change | -1.3
O=C(c1ccc(C2CCCCC2)cc1)N1CCCC1 | – | hepatocyte stability | cryopreserved rat hepatocytes | 1 µM | – | hepatic clearance | 46 mL/min/kg
CC[n+]1cccc2cc(/C=N/NC(=O)C(=O)N/N=C/c3ccc4c(ccc[n+]4CC)c3)ccc21 | 22CTA telomeric G4-DNA antiparallel | FRET melting | – | 1 µM, K10 buffer, DNA 0.2 µM | – | ΔTm | 4 ± 1.7 °C
COC1OC(C)C(OC2OC(C)C(O)C(OC3OC(C)C(OC4OC(C)C(O)C(OC5OC(C)C(OC6OC(C)C(O)C(OC7OC(C)C(OC8OC(C)C(O)C(OC9OC(C)C(OC%10OC(C)C(O)C(OS(=O)(=O)O)C%10OS(=O)(=O)O)C(OS(=O)(=O)O)C9OS(=O)(=O)O)C8OS(=O)(=O)O)C(OS(=O)(=O)O)C7OS(=O)(=O)O)C6OS(=O)(=O)O)C(OS(=O)(=O)O)C5OS(=O)(=O)O)C4OS(=O)(=O)O)C(OS(=O)(=O)O)C3OS(=O)(=O)O)C2OS(=O)(=O)O)C(OS(=O)(=O)O)C1OS(=O)(=O)O (centres unmarked) | – | – | human plasma | 32 µg/mL | – | activated partial thromboplastin time | 62.6 s and 63.7 s and 61.1 s
Nc1ncc(-c2cc(-c3cnn(CC(F)(F)F)c3)ncc2F)nc1C(=O)NC1CNCC(F)C1 (centres unmarked) | EPHB2 | KINOMEscan | – | 1 µM | reference: DMSO control | remaining binding | 95%
C=CC(=O)Nc1cccc(Cn2ncc3cnc(Nc4cnn(CCOC)c4)nc32)c1 | DYRK1A human | binding, KINOMEscan | – | 100 nM | lower = stronger binding | percent of control | 100%
C=C(NC(=O)c1csc(-c2nc3c(cc2O)-c2nc(cs2)C(=O)NC(C(C)O)C(=O)NC(=C(C)OC)c2nc(cs2)C(=O)NC2c4nc(cs4)C(=O)NC(COC(=O)c4c5c6c(cccc6n4O)COC(=O)C(OC4CC(C)(O)C(N(C)C)C(C)O4)C2OC5)c2nc-3cs2)n1)C(N)=O (centres unmarked) | Streptococcus pneumoniae | – | -4, immunocompromised mice, lung infection | qd dosing | – | ED50 | 4.14 mg/kg
CO[C@@H]1[C@@H](OC(N)=O)[C@@H](O)[C@H](Oc2ccc3c(O)c(NC(=O)c4ccc(O)c(CC=C(C)C)c4)c(=O)oc3c2C)OC1(C)C | HCT-116 parental | – | – | 300 µM | reference: untreated | colony survival | 0.417%
C[n+]1ccc(/C=N/NC(=O)c2ccc3ccc(C(=O)N/N=C/c4cc[n+](C)cc4)nc3n2)cc1 | 22CTA telomeric G4-DNA antiparallel | FRET melting | – | 1 µM, K10 buffer, DNA 0.2 µM | – | ΔTm | 6.2 ± 0.3 °C
COC1OC(C)C(OS(=O)(=O)O)C(OC2OC(C)C(OS(=O)(=O)O)C(OC3OC(C)C(OS(=O)(=O)O)C(OC4OC(C)C(OS(=O)(=O)O)C(OS(=O)(=O)O)C4O)C3O)C2O)C1O (centres unmarked) | – | – | human plasma | 128 µg/mL | – | activated partial thromboplastin time | 34 ± 0.5 s
O=C(N/N=C/c1ccc2c(ccc[n+]2Cc2ccccc2)c1)c1ccc2ccc(C(=O)N/N=C/c3ccc4c(ccc[n+]4Cc4ccccc4)c3)nc2n1 | 22CTA telomeric G4-DNA antiparallel | FRET melting | – | 1 µM, K10 buffer, DNA 0.2 µM, together with: ds26 10 µM | – | ΔTm | 15.8 ± 0.2 °C
c1ccc(-c2n[nH]cc2-c2ccnc3ccccc23)nc1 | STE11 (Candida albicans) | kinase binding, MIB/MS competition | Candida albicans lysate | 1 µM | reference: DMSO | log2 fold change | -0.2
O=C(N/N=C/c1cc[n+](CC2CC2)c2ccccc12)C(=O)N/N=C/c1cc[n+](CC2CC2)c2ccccc12 | 22CTA telomeric G4-DNA antiparallel | FRET melting | – | 1 µM, K10 buffer, DNA 0.2 µM, together with: ds26 10 µM | – | ΔTm | 4.7 ± 1.2 °C
c1ccc(CN2CCOCCOCCN(CCCCCCCCN3CCOCCOCCN(CCCCCCCCN4CCOCCOCCN(Cc5ccccc5)CCOCCOCC4)CCOCCOCC3)CCOCCOCC2)cc1 | Klebsiella pneumoniae | checkerboard | ATCC BAA-2146 | quarter MIC, together with: tetracycline | – | FIC index | 0.5
C[n+]1ccc(/C=N/NC(=O)c2cccc(C(=O)N/N=C/c3cc[n+](C)cc3)n2)cc1 | 22CTA telomeric G4-DNA antiparallel | FRET melting | – | 1 µM, K10 buffer, DNA 0.2 µM, together with: ds26 10 µM | – | ΔTm | 4.5 ± 1 °C
O=C(CC(F)(F)F)Nc1ccc(C2CCCCC2)cc1 | – | hepatocyte stability | cryopreserved mouse hepatocytes | 1 µM | – | hepatic clearance | 80 mL/min/kg
O=C(N/N=C/c1ccc(C[n+]2ccccc2)cc1)c1ccc2ccc(C(=O)N/N=C/c3ccc(C[n+]4ccccc4)cc3)nc2n1 | 22CTA telomeric G4-DNA antiparallel | FRET melting | – | 1 µM, K10 buffer, DNA 0.2 µM | – | ΔTm | 15.2 ± 0.4 °C
COC1OC(C)C(OS(=O)(=O)O)C(OC2OC(C)C(OS(=O)(=O)O)C(OC3OC(C)C(OS(=O)(=O)O)C(OC4OC(C)C(OS(=O)(=O)O)C(OC5OC(C)C(OS(=O)(=O)O)C(OC6OC(C)C(OS(=O)(=O)O)C(OC7OC(C)C(OS(=O)(=O)O)C(OC8OC(C)C(OS(=O)(=O)O)C(OC9OC(C)C(OS(=O)(=O)O)C(OS(=O)(=O)O)C9O)C8O)C7O)C6O)C5O)C4O)C3O)C2O)C1O (centres unmarked) | – | – | human plasma | 128 µg/mL | – | activated partial thromboplastin time | 40 ± 0.8 s

Some of these lines once more:
Compound | tested on | assay | test system | setting | how to read | endpoint | value
COC1OC(C)C(OC2OC(C)C(O)C(OC3OC(C)C(OC4OC(C)C(O)C(OC5OC(C)C(OC6OC(C)C(O)C(OC7OC(C)C(OC8OC(C)C(O)C(OC9OC(C)C(OC%10OC(C)C(O)C(OS(=O)(=O)O)C%10OS(=O)(=O)O)C(OS(=O)(=O)O)C9OS(=O)(=O)O)C8OS(=O)(=O)O)C(OS(=O)(=O)O)C7OS(=O)(=O)O)C6OS(=O)(=O)O)C(OS(=O)(=O)O)C5OS(=O)(=O)O)C4OS(=O)(=O)O)C(OS(=O)(=O)O)C3OS(=O)(=O)O)C2OS(=O)(=O)O)C(OS(=O)(=O)O)C1OS(=O)(=O)O (centres unmarked) | – | – | human plasma | 32 µg/mL | – | activated partial thromboplastin time | 62.6 s and 63.7 s and 61.1 s
C[n+]1ccc(/C=N/NC(=O)c2cccc(C(=O)N/N=C/c3cc[n+](C)cc3)n2)cc1 | 22CTA telomeric G4-DNA antiparallel | FRET melting | – | 1 µM, K10 buffer, DNA 0.2 µM, together with: ds26 10 µM | – | ΔTm | 4.5 ± 1 °C
COC1OC(C)C(OS(=O)(=O)O)C(OC2OC(C)C(OS(=O)(=O)O)C(OC3OC(C)C(OS(=O)(=O)O)C(OC4OC(C)C(OS(=O)(=O)O)C(OS(=O)(=O)O)C4O)C3O)C2O)C1O (centres unmarked) | – | – | human plasma | 128 µg/mL | – | activated partial thromboplastin time | 34 ± 0.5 s
